{"data": "Results gathered from unrelated publications", "note": "Lines come from different studies, so protocols differ. Numbers after ± are the reported error."}
{"Compound": "CC(C)C[C@H](NC(=O)[C@H](CCCCN)NC(=O)OCC1c2ccccc2-c2ccccc21)C(=O)N[C@H](C(=O)N[C@@H](Cc1ccccc1)C(=O)N[C@@H](Cc1ccccc1)C(=O)N[C@@H](CCCCN)C(=O)NCC(=O)N[C@@H](Cc1ccccc1)C(=O)N[C@@H](C)C(=O)N[C@@H](Cc1c[nH]c2ccccc12)C(=O)N[C@@H](CC(N)=O)C(=O)N[C@H](C(=O)N[C@H]1CSSC[C@@H](C(=O)N[C@@H](Cc2c[nH]cn2)C(=O)N[C@@H](CCCNC(=N)N)C(=O)N[C@@H](CCCNC(=N)N)C(=O)N[C@@H](C)C(=O)N[C@@H](CC(N)=O)C(N)=O)NC(=O)[C@H](C(C)C)NC(=O)[C@H](CCCNC(=N)N)NC(=O)[C@H](C(C)C)NC(=O)CNC(=O)[C@H](CC(N)=O)NC(=O)[C@H](CCCNC(=N)N)NC(=O)[C@H](Cc2ccc(O)cc2)NC(=O)[C@H](C(C)C)NC1=O)C(C)C)C(C)C", "test system": "ICR mouse, blood", "conditions": "intramammary, 10 mg/kg, day 5, 3 d dosing", "quantity": "MCH", "value": "13.7 ± 0.15 pg"}
{"Compound": "CCN1CCN(Cc2ccc(Nc3ncc(F)c(-c4cc(F)c5nc6n(c5c4)[C@H](C)CCC6)n3)nc2)CC1", "test system": "advanced solid tumour patients", "conditions": "dose not given, Phase Ia monotherapy", "quantity": "Hypophosphatemia incidence, grade ≥3", "value": "0%"}
{"Compound": "COC[C@@H](CC(C)C)NC(=O)c1ccc(C)c(C)c1", "test system": "bone marrow erythrocytes, mouse Hsd:ICR (CD-1), female", "conditions": "oral, 624 mg/kg, 24 h", "quantity": "PCE to total erythrocyte ratio", "value": 0.529}
{"Compound": "CCc1ccc(CC/C=C/c2ccc3c(c2)C(=O)CC3)cc1", "test system": "Sprague-Dawley rat, male, blood", "conditions": "oral, 30 mg/kg/day, 14 days", "quantity": "platelet distribution width", "value": "50.8%"}
{"Compound": "Cc1cccc(Cn2nc(C3CC3)c3c(NC(=O)c4cnc5cc(OCCN6CCN(C)CC6)ccn45)cccc32)n1", "test": "CTCAE v4.03, measured: blood CPK increased", "test system": "patients with advanced solid tumours", "conditions": "oral, all dose levels, added: pembrolizumab 2 mg/kg IV every 3 weeks", "quantity": "all-cause adverse events", "value": "42.1%"}
{"Compound": "CN1CC[C@@H](c2c(O)cc(O)c3c(=O)cc(-c4ccc(C(F)(F)F)cc4Cl)oc23)[C@@H]1CO", "test": "measured: Epistaxis", "test system": "B-cell malignancies or AML", "conditions": "oral, 50 mg, continuous dosing", "quantity": "patients with adverse event", "value": "0%"}
{"Compound": "CCN1[C@@H](C(=O)NC23CCC(C(=O)O)(CC2)CC3)[C@H](c2cccc(Cl)c2F)[C@]2(C(=O)Nc3cc(Cl)ccc32)C12CCCCC2", "test system": "patients with advanced solid tumours", "conditions": "oral, 100 mg", "quantity": "grade ≥3 febrile neutropenia incidence", "value": "0%"}
{"Compound": "C[C@H]1CN(C(=O)CC#N)[C@]12CCN(c1ncnc3[nH]ccc13)C2", "test system": "minipig, male", "conditions": "dermal, 20 mg/kg repeated, 9 months", "quantity": "AUC at NOAEL", "value": "149 ng·h/mL"}
{"Compound": "CO[C@H]1C[C@@H]2CC[C@@H](C)[C@@](O)(O2)C(=O)C(=O)N2CCCC[C@H]2C(=O)O[C@H]([C@H](C)C[C@@H]2CC[C@@H](OC(=O)NCCOCCOCCOCCOCCOCCOCCOCCOCCC(=O)N3CCc4cc(Cn5nc(-c6ccc7oc(N)nc7c6)c6c(N)ncnc65)ccc4C3)[C@H](OC)C2)C[C@@H](O)[C@H](C)/C=C(\\C)[C@@H](O)[C@@H](OC)C(=O)[C@H](C)C[C@H](C)/C=C/C=C/C=C/1C", "test": "phase 1 dose escalation, measured: fatigue", "test system": "advanced solid tumour patients", "conditions": "intravenous, 16 mg weekly, grade ≥3", "quantity": "TRAE incidence", "value": "0%"}
{"Compound": "CCc1cc(C(=O)NC)c2nccc(N3CCc4c(cc(Cn5ccnc5)cc4-c4cn(C)nc4C(F)(F)F)C3=O)c2c1", "test system": "Sprague Dawley rats, male, bile duct-cannulated, bile", "conditions": "oral, 50 mg/kg, 0--24 h", "quantity": "amount excreted", "value": "62000 ± 50000 ng"}
{"Compound": "CCOC(=O)COc1ncccc1Oc1cc(-n2c(=O)cc(C(F)(F)F)n(C)c2=O)c(F)cc1Cl", "test system": "Crl:CD(SD) rats, female", "conditions": "dietary, 90 days", "quantity": "NOAEL", "value": "300 ppm in diet"}
{"Compound": "Cc1ncnc2c1ccn2[C@@H]1C[C@H](Oc2cc(C(F)F)c(F)c3c2CNCC3)[C@@H](O)[C@H]1O", "test system": "patients", "conditions": "dose not given, grade ≥3", "scale": "relative to: patients", "quantity": "Hypomagnesemia incidence", "value": "0%"}
{"Compound": "COc1cc2c(Oc3ccc4[nH]c(C)cc4c3F)ccnc2cc1OCC1(N)CC1", "test system": "paediatric recurrent refractory sarcoma", "conditions": "8 mg", "quantity": "grade 1 or 2 intestinal obstruction", "value": "0%"}
{"Compound": "CCCCCCCCCCCCCCCC(=O)N[C@@H](CCC(=O)NCCCC[C@H](NC(=O)[C@H](CC(=O)O)NC(=O)[C@H](CO)NC(=O)[C@@H](NC(=O)[C@H](Cc1ccccc1)NC(=O)[C@@H](NC(=O)CNC(=O)[C@H](CCC(N)=O)NC(=O)[C@H](CO)NC(=O)[C@@H](N)Cc1c[nH]cn1)[C@@H](C)O)[C@@H](C)O)C(=O)N[C@@H](CO)C(=O)N[C@@H](CCC(=O)O)C(=O)N[C@@H](Cc1ccc(O)cc1)C(=O)N[C@@H](CC(C)C)C(=O)N[C@@H](CC(=O)O)C(=O)N[C@@H](CO)C(=O)N[C@@H](CCC(=O)O)C(=O)N[C@@H](CCCNC(=N)N)C(=O)N[C@@H](C)C(=O)N[C@@H](CCCNC(=N)N)C(=O)N[C@@H](CC(=O)O)C(=O)N[C@@H](Cc1ccccc1)C(=O)N[C@H](C(=O)N[C@@H](C)C(=O)N[C@@H](Cc1c[nH]c2ccccc12)C(=O)N[C@@H](CC(C)C)C(=O)N[C@@H](CCC(=O)O)C(=O)N[C@@H](C)C(=O)NCC(=O)NCC(=O)O)C(C)C)C(=O)O", "test": "measured: Tachycardia", "test system": "humans CrCl below 20 mL/min", "conditions": "subcutaneous, 100 µg single dose", "quantity": "treatment-related adverse events", "value": "0%"}
{"Compound": "O=C(Nc1ccccc1)C1CCN(C(=O)Oc2cccnc2)CC1", "test system": "healthy women", "conditions": "oral, 60 mg, 7 days", "quantity": "adverse event Erythema", "value": "0%"}
{"Compound": "Nc1nc2cc(-c3ccc4ncc(C(=O)N5CCOCC5)n4c3)ccc2o1", "test system": "advanced solid tumour patients", "conditions": "dose not given", "scale": "relative to: patients", "quantity": "serious AEs", "value": "42%"}
{"Compound": "C[C@]1(CO)Cc2ncn(-c3ccc(C#N)c(Cl)c3)c2C(=O)O1", "test system": "human", "conditions": "20 mg single dose", "quantity": "subjects with severe TEAEs", "value": "0%"}
{"Compound": "FC(F)(F)Oc1cccc(-c2ccnc3[nH]c(C(F)(F)F)nc23)c1", "test system": "mouse, C57BL/6, male", "conditions": "oral gavage, 24 h", "quantity": "NOAEL", "value": "≤ 1000 mg/kg"}
{"Compound": "O=C(NCCCNc1nc(Nc2cccc(NC(=O)N3CCCC3)c2)ncc1I)c1cccs1", "test system": "simulated tear fluid", "conditions": "24 h, 37 °C", "quantity": "equilibrium solubility", "value": "< 1 µg/mL"}
{"Compound": "COc1ncccc1-c1cnn2ccc(N3CCN(C(=O)OC(C)C)CC3)nc12", "test system": "rat, CCI mechanical allodynia model, plasma", "conditions": "oral, 3 mg/kg, 240 min", "quantity": "drug concentration", "value": "560 nM"}
{"Compound": "Cn1c(-c2ccc(C(N)=O)cc2F)nnc1C(C)(C)Oc1c(F)cc(Cl)cc1F", "test system": "human", "conditions": "oral, 10 mg, single ascending dose", "quantity": "nervous system disorder TEAE", "value": "0%"}
{"Compound": "O=C1Nc2cc3[nH]nc(-c4ccncc4)c3cc2CN1Cc1ccccc1", "test": "CTCAE v4.03", "test system": "advanced solid tumour patients", "conditions": "intravenous, 7.2 mg/kg, schedules 1/2", "quantity": "patients with cough", "value": "20%"}
{"Compound": "O[C@H]1CCCN[C@@H]1CCCn1cnc2c(Cl)c(Cl)ccc21", "test system": "healthy humans, plasma", "conditions": "oral, 150 mg twice daily", "quantity": "terminal half-life", "value": "4.09 h"}
{"Compound": "COc1ccc2nc3cc(Cl)ccc3c(Nc3cc(CN4CCCC4)c(O)c(CN4CCCC4)c3)c2n1", "test system": "mouse, blood", "conditions": "oral, 57 mg/kg, tolerability, mean", "quantity": "alanine aminotransferase", "value": "0.42 U/L"}
{"Compound": "C[C@]1(O)C[C@@](N)(c2ccc(-c3nc4n(c3-c3ccccc3)COc3ccncc3-4)cc2)C1", "test system": "human, advanced or metastatic solid tumours", "conditions": "dose not given, all patients", "quantity": "patients with grade ≥3 Stomatitis TEAE", "value": "11.8%"}
{"note": "For quick reference, copied from above:"}
{"Compound": "CCc1cc(C(=O)NC)c2nccc(N3CCc4c(cc(Cn5ccnc5)cc4-c4cn(C)nc4C(F)(F)F)C3=O)c2c1", "test system": "Sprague Dawley rats, male, bile duct-cannulated, bile", "conditions": "oral, 50 mg/kg, 0--24 h", "quantity": "amount excreted", "value": "62000 ± 50000 ng"}
{"Compound": "CCOC(=O)COc1ncccc1Oc1cc(-n2c(=O)cc(C(F)(F)F)n(C)c2=O)c(F)cc1Cl", "test system": "Crl:CD(SD) rats, female", "conditions": "dietary, 90 days", "quantity": "NOAEL", "value": "300 ppm in diet"}
{"Compound": "Cc1ncnc2c1ccn2[C@@H]1C[C@H](Oc2cc(C(F)F)c(F)c3c2CNCC3)[C@@H](O)[C@H]1O", "test system": "patients", "conditions": "dose not given, grade ≥3", "scale": "relative to: patients", "quantity": "Hypomagnesemia incidence", "value": "0%"}
